# Measurements pooled from the literature.
# Protocols differ between the studies behind these lines. Numbers after ± are the reported error.
# Beta-lactamase CTX-M-27: Beta-lactamase CTX-M-27 (Escherichia coli, UniProt Q840M4)
# BIRC3 BIR3: Baculoviral IAP repeat-containing protein 3, BIR3 (BIRC3, Homo sapiens, UniProt Q13489)
Structure (SMILES),target,test,conditions,Ki [µM]
COCCOc1cc2ncnc(Nc3cccc(-c4cn(-c5ccc(S(N)(=O)=O)cc5)nn4)c3)c2cc1OCCOC,"CA6 (Homo sapiens, UniProt P23280)","enzyme activity, inhibitor, stopped-flow",,0.36
C[C@@H]1O[C@@H](OCc2cc(O)c3c(c2)[C@H]([C@@H]2O[C@H](CO)[C@@H](O)[C@H](O)[C@H]2O)c2cccc(O)c2C3=O)[C@H](O)[C@H](O)[C@H]1O,"IDO1 (Homo sapiens, UniProt P14902)","uncompetitive inhibitor, Lineweaver-Burk plot",,77.3
CN[C@@H](C)C(=O)N[C@H]1CN(C(=O)Cc2ccccc2)CC[C@H]2CC[C@@H](C(=O)NCc3ccc(C)cc3)N2C1=O,"Baculoviral IAP repeat-containing protein 2, BIR3 (BIRC2, Homo sapiens, UniProt Q13490)","ligand displacement, FP",,0.004
CC(C)CN(NC(=O)[C@H](CCCNC(=N)N)NC(=O)[C@H](Cc1ccc(O)cc1)NC(=O)CCCCCCC(=O)N[C@@H](Cc1ccc(O)cc1)C(=O)N[C@@H](CCCNC(=N)N)C(=O)NN(CC(C)C)C(=O)N[C@@H](CCCNC(=N)N)C(=O)N[C@@H](Cc1ccc(O)cc1)C(N)=O)C(=O)N[C@@H](CCCNC(=N)N)C(=O)N[C@@H](Cc1ccc(O)cc1)C(N)=O,"NPY5R (Homo sapiens, UniProt Q15761)","ligand displacement, radioligand",,2.7
CC[C@H](C)[C@H](NC(C)=O)C(=O)N[C@H](C(=O)N[C@H](C(=O)N[C@@H](CCCCN)C(=O)N[C@H](C=O)CC(=O)O)C(C)C)[C@@H](C)O,"Caspase-7 (CASP7, Homo sapiens, UniProt P55210)","enzyme activity, inhibitor, fluorescence",pH 7,5.62
COCCOc1cc2ncnc(Nc3cccc(-c4cn(-c5ccccc5S(N)(=O)=O)nn4)c3)c2cc1OCCOC,"CA9 (Homo sapiens, UniProt Q16790)","enzyme activity, inhibitor, stopped-flow",,0.0183
O=C(Nc1cccc(-c2nn[nH]n2)c1)c1cc(-c2cncnc2)cc(C(F)(F)F)c1,Beta-lactamase CTX-M-27,"enzyme activity, inhibitor, absorbance",pH 7,4
CCCCCCCCCCCCCCN(O)C(=O)CCCCC[C@@H]1NC(=O)[C@H]([C@@H](C)CC)NC(=O)[C@H](Cc2ccccc2C(F)(F)F)NC(=O)CCSCc2cccc(n2)CSCCCNC1=O,"HDAC11 (Homo sapiens, UniProt Q96DB2)","enzyme activity, inhibitor, fluorescence",,0.05
Cc1cc(N)nc(CC2CNCC2OCCNCC(F)(F)c2ccc(F)cc2)c1 (stereo not drawn),"NOS3 (Bos taurus, UniProt P29473)","enzyme activity, inhibitor, hemoglobin capture",,31
CN[C@@H](C)C(=O)N[C@H]1CN(C(=O)Cc2ccccc2)CC[C@H]2CC[C@@H](C(=O)NCc3cccc(Br)c3)N2C1=O,BIRC3 BIR3,"ligand displacement, FP",,0.0437
CN(C)CCN(Cc1ccncc1)Cc1c(Cl)cccc1Cl,"SLC6A3 (Homo sapiens, UniProt Q01959)","ligand displacement in cells, radioligand",,> 20
O=C(Nc1cccc(-c2nn[nH]n2)c1)c1cc(-c2ccsc2)cc(C(F)(F)F)c1,Beta-lactamase CTX-M-27,"enzyme activity, inhibitor, absorbance",pH 7,5.21
CN[C@@H](C)C(=O)N[C@H]1CN(C(=O)Cc2ccccc2)CC[C@H]2CC[C@@H](C(=O)NCc3ccc(C(C)C)cc3)N2C1=O,BIRC3 BIR3,"ligand displacement, FP",,0.157
CN(C)c1ccc2c(c1)C(=O)N([C@H](CS)C(=O)O)C2=O,"VIM-2 (Escherichia coli, UniProt Q5U7L7)","enzyme activity, inhibitor","Km 8 µM, added: chromacef 25 µM",0.3 ± 0.01
CCC[C@H]1N[C@H](CO)[C@@H](O)[C@H](O)[C@H]1O,"Alpha-galactosidase (Coffea arabica, UniProt Q42656)","enzyme activity, competitive inhibitor","green coffee bean enzyme, optimal pH, added: p-nitrophenyl glycopyranoside",> 2000

# Some of these lines once more:
Structure (SMILES),target,test,conditions,Ki [µM]
CN(C)CCN(Cc1ccncc1)Cc1c(Cl)cccc1Cl,"SLC6A3 (Homo sapiens, UniProt Q01959)","ligand displacement in cells, radioligand",,> 20
CC[C@H](C)[C@H](NC(C)=O)C(=O)N[C@H](C(=O)N[C@H](C(=O)N[C@@H](CCCCN)C(=O)N[C@H](C=O)CC(=O)O)C(C)C)[C@@H](C)O,"Caspase-7 (CASP7, Homo sapiens, UniProt P55210)","enzyme activity, inhibitor, fluorescence",pH 7,5.62
